Experimental data of several laboratories.
Lines come from different studies, so protocols differ.
PPO3: PPO3 (Agaricus bisporus, UniProt C7FF04)
Chain of UniProt C7FF04 (whole entry, looked up): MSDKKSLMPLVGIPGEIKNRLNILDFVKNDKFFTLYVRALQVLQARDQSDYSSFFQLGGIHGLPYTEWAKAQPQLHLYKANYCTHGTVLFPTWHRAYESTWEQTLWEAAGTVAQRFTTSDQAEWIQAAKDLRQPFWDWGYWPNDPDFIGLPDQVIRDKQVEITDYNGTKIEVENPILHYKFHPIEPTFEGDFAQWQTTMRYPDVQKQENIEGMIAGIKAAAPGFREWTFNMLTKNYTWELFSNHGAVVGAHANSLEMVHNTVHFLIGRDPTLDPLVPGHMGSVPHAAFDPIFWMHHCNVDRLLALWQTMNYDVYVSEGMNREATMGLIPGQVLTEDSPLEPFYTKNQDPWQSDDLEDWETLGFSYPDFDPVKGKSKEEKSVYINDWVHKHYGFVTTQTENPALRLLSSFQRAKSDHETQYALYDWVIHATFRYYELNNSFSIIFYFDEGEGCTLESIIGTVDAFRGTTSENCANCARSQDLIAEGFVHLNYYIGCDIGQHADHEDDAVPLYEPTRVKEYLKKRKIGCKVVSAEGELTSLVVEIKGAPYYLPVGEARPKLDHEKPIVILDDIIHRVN
CSK: Tyrosine-protein kinase CSK (CSK, Homo sapiens, UniProt P41240)
Chain of UniProt P41240 (whole entry, looked up): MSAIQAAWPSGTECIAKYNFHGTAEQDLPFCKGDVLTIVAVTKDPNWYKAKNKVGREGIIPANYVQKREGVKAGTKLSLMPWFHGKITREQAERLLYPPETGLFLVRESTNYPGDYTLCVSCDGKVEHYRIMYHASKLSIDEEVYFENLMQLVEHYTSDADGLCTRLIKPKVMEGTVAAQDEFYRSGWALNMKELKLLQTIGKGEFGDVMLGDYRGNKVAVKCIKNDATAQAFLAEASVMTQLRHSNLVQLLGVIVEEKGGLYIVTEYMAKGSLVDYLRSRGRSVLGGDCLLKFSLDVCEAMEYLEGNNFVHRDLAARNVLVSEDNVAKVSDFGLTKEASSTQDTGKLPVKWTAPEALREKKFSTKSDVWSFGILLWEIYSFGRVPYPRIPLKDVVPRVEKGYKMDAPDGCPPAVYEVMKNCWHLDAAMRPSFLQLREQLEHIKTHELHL
Chain of UniProt P07333 (whole entry, looked up): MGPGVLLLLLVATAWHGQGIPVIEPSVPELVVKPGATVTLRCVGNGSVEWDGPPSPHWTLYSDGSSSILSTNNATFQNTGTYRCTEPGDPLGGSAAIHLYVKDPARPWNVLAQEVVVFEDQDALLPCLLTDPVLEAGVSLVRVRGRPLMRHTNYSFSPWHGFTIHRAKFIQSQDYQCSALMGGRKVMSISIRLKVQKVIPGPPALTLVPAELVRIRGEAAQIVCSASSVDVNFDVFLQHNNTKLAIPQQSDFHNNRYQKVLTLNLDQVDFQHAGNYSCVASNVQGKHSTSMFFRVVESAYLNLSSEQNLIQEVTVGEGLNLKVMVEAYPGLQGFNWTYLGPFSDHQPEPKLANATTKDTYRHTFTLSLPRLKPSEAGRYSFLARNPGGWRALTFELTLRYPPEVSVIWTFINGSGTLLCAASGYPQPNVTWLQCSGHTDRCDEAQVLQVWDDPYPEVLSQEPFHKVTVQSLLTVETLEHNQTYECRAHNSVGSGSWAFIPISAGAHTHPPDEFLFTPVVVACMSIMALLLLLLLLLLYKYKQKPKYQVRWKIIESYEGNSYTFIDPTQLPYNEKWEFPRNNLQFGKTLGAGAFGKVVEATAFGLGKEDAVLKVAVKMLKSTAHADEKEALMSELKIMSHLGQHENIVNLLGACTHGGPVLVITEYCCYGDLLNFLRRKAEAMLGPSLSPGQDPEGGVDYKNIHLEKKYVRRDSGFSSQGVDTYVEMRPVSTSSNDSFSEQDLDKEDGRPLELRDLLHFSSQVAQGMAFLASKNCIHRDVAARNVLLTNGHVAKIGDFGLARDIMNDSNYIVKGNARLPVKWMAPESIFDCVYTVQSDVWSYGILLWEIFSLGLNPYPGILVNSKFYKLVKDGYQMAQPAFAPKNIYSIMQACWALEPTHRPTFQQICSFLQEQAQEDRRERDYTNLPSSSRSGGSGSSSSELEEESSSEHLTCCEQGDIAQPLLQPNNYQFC
Chain of UniProt Q9UH17 (whole entry, looked up): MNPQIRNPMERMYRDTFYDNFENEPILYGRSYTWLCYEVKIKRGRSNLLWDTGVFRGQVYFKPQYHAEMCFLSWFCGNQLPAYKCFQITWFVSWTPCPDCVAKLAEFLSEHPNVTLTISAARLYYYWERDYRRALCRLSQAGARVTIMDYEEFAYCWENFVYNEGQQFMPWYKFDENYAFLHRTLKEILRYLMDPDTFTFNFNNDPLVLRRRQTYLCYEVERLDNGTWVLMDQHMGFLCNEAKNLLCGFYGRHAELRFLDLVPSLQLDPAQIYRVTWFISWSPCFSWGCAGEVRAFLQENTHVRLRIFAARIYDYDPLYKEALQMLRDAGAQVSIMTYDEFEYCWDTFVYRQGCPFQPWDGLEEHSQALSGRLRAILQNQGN
Chain of UniProt O14672 (whole entry, looked up): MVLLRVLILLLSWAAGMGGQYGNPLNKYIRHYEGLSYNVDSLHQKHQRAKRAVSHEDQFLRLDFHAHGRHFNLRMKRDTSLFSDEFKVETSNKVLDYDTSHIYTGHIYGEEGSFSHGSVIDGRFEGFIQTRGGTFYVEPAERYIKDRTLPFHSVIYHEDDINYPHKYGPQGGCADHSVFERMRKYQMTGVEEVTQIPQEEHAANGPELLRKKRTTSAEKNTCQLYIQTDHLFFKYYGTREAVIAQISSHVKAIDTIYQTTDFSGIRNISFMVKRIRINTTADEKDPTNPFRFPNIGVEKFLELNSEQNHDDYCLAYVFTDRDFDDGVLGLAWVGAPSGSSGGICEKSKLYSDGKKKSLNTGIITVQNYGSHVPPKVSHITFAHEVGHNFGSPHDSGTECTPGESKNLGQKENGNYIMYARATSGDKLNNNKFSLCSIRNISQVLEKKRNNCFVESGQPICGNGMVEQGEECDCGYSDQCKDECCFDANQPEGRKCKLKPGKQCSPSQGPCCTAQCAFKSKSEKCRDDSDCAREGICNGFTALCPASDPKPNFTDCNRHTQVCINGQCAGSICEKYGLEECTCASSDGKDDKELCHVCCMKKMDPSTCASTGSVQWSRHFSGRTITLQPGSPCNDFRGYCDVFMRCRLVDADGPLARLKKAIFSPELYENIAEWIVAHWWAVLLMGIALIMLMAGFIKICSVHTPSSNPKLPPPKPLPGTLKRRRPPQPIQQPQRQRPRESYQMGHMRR
Chain of UniProt B2RXH2 (whole entry, looked up): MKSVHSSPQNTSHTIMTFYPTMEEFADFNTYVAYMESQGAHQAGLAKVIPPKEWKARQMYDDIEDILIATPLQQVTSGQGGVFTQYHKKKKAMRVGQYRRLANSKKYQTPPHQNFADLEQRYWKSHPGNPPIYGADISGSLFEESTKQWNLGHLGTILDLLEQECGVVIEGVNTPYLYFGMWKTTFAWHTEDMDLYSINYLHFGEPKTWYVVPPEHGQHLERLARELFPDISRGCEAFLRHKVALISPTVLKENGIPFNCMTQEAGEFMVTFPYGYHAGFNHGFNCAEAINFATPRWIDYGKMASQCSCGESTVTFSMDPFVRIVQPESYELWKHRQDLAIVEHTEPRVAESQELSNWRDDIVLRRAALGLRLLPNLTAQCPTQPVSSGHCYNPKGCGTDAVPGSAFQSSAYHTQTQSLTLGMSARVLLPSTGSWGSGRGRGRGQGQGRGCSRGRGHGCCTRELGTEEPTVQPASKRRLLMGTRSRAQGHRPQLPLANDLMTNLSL

Compound | target | test | test system | setting | scale | remaining activity [%]
O=C(Cc1c(-c2ccccc2)n[nH]c1-c1ccccc1)NO | Disintegrin and metalloproteinase domain-containing protein 10 (ADAM10, Homo sapiens, UniProt O14672) | enzyme activity, inhibitor | – | 10 µM | – | 73
O=C(O)c1ccnc(C(=O)O)c1Br | Lysine-specific demethylase 4E (KDM4E, Homo sapiens, UniProt B2RXH2) | inhibitor, FDH-coupled formaldehyde | – | 200 µM | – | 67
CC(C)C[C@H](NC(=O)[C@H](CC(C)C)NC(=O)[C@H](CCCNC(=N)N)NC(=O)[C@@H](N)CS)C(=O)O | PPO3 | enzyme activity, inhibitor | – | 200 µM | – | 31.9
CC(=O)N[C@@H](Cc1c[nH]c2ccccc12)C(=O)N[C@@H](Cc1c[nH]c2ccccc12)C(=O)N[C@@H](Cc1c[nH]c2ccccc12)C(=O)N[C@@H](Cc1c[nH]c2ccccc12)C(=O)N[C@@H](Cc1c[nH]c2ccccc12)C(=O)N[C@@H](Cc1c[nH]c2ccccc12)C(=O)NCCCC[C@@H]1NC(=O)[C@H](CCCNC(=N)N)NC(=O)[C@H](CCCNC(=N)N)NC(=O)[C@H](CCCNC(=N)N)NC(=O)[C@H](CCCNC(=N)N)NC(=O)[C@H](CCCNC(=N)N)NC(=O)[C@H](CCCNC(=N)N)NC1=O | CSK | kinase activity, Reaction Biology radiometric | – | concentration not given, with: ATP 200 µM | relative to: DMSO | 91.8
NC(=O)C[C@H](NC(=O)[C@H](CC(N)=O)NC(=O)[C@H](CCC(=O)O)NC(=O)[C@@H](N)CS)C(=O)O | PPO3 | enzyme activity, inhibitor | – | 100 µM | – | 63.3
CCCc1c(OC)c(=O)c2c(O)cc(OC)c3c4c(OC)cc(O)c5c(=O)c(OC)c(CCC)c(c1c23)c54 | protein kinase C catalytic subunit | – | – | 50 µM | – | > 85
N=C(N)NCCC[C@H](NC(=O)[C@@H](N)CS)C(=O)N[C@@H](CC(N)=O)C(=O)N[C@@H](CC(N)=O)C(=O)O | PPO3 | enzyme activity, inhibitor | – | 200 µM | – | 12.9
O=C(CCCC[C@H]1CCSS1)NCCC(=O)N[C@@H](Cc1cnc[nH]1)C(=O)O (mixture of isomers) | Transient receptor potential cation channel subfamily A member 1 (Trpa1, Mus musculus, UniProt Q8BLA8) | ion current, inhibitor, patch clamp | CHO | 30 µM | – | 7.7
CC(=O)N[C@@H](Cc1c[nH]c2ccccc12)C(=O)N[C@@H](Cc1c[nH]c2ccccc12)C(=O)N[C@@H](Cc1c[nH]c2ccccc12)C(=O)N[C@@H](Cc1c[nH]c2ccccc12)C(=O)N[C@@H](Cc1c[nH]c2ccccc12)C(=O)N[C@@H](Cc1c[nH]c2ccccc12)C(=O)N[C@@H](Cc1c[nH]c2ccccc12)C(=O)NCCCC[C@@H]1NC(=O)[C@H](CCCNC(=N)N)NC(=O)[C@H](CCCNC(=N)N)NC(=O)[C@H](CCCNC(=N)N)NC(=O)[C@H](CCCNC(=N)N)NC(=O)[C@H](CCCNC(=N)N)NC1=O | Proto-oncogene tyrosine-protein kinase Src (SRC, Homo sapiens, UniProt P12931) | enzyme activity, inhibitor, radiometric | – | 5 µM | – | 95.1
CN(CC(=O)c1ccc2[nH]c(=O)[nH]c2c1)Cc1ccco1 | DNA dC->dU-editing enzyme APOBEC-3B (Homo sapiens, UniProt Q9UH17) | deaminase activity, inhibitor, alkaline cleavage | purified, expressed in 293T | 700 µM | – | 5
CC(C)C[C@H](NC(=O)[C@H](CCC(=O)O)NC(=O)[C@@H](N)CS)C(=O)N[C@@H](CC(N)=O)C(=O)O | PPO3 | enzyme activity, inhibitor | – | 25 µM | – | 77.6
CC1(C)CCN(Cc2ccc(C(=O)NC[C@]3(O)CCCN(c4cc(NCc5ccccc5)ncn4)C3)c(O)c2)CC1 | Macrophage colony-stimulating factor 1 receptor (CSF1R, Homo sapiens, UniProt P07333) | kinase activity, radiometric | – | 10 µM, with: 10 µM ATP | – | 92
N=C(N)NCCC[C@@H]1NC(=O)[C@H](Cc2c[nH]c3ccccc23)NC(=O)[C@H](CCCNC(=N)N)NC(=O)[C@H](Cc2c[nH]c3ccccc23)NC(=O)[C@H](CCCNC(=N)N)NC(=O)[C@H](Cc2c[nH]c3ccccc23)NC(=O)[C@H](CCCNC(=N)N)NC(=O)[C@H](Cc2c[nH]c3ccccc23)NC(=O)[C@H](CCCNC(=N)N)NC(=O)[C@H](Cc2c[nH]c3ccccc23)NC(=O)[C@H](CCCNC(=N)N)NC(=O)[C@H](Cc2c[nH]c3ccccc23)NC(=O)[C@H](CCCNC(=N)N)NC(=O)[C@H](Cc2c[nH]c3ccccc23)NC(=O)[C@H](CCCNC(=N)N)NC(=O)[C@H](Cc2c[nH]c3ccccc23)NC(=O)[C@H](CCCNC(=N)N)NC(=O)[C@H](Cc2c[nH]c3ccccc23)NC1=O | CSK | kinase activity, Reaction Biology radiometric | – | concentration not given, with: ATP 200 µM | relative to: DMSO | 7.7

A few entries again:
Compound | target | test | test system | setting | scale | remaining activity [%]
CC1(C)CCN(Cc2ccc(C(=O)NC[C@]3(O)CCCN(c4cc(NCc5ccccc5)ncn4)C3)c(O)c2)CC1 | Macrophage colony-stimulating factor 1 receptor (CSF1R, Homo sapiens, UniProt P07333) | kinase activity, radiometric | – | 10 µM, with: 10 µM ATP | – | 92
